Measurements from different studies.
Every numbered part comes from another study and shows a few of its results, in no order. Positions count from the first letter of the parent shown.

Study 1 — target: CCNF, cyclin fold, Cln2 fusion (human); technique: yeast growth competition, sequencing; sample: yeast; setting: strong parent motif; relative to: not given; reading: higher = stronger binding
Starting sequence: CDC25A docking peptide (human); PPHRRRLLFACSP
For `L8A`, “normalised enrichment score” read 5.32.
Under “normalised enrichment score”, `C11P` is recorded as 8.82.
`P2M`: “normalised enrichment score” 7.1.
`H3G` — result for “normalised enrichment score”: 9.17.
`R4H` — result for “normalised enrichment score”: 2.89.
For `F9W`, “normalised enrichment score” read 3.6.
`L8T`: “normalised enrichment score” 5.85.
For `F9D`, “normalised enrichment score” read 0.248.
`A10V`: “normalised enrichment score” 7.41.
Under “normalised enrichment score”, `R5P` is recorded as 0.57.
For `H3C`, “normalised enrichment score” read 10.6.
`P13I`: “normalised enrichment score” 7.26.
`L7A` — result for “normalised enrichment score”: 1.72.
`H3R` — result for “normalised enrichment score”: 3.89.
`R6C` — result for “normalised enrichment score”: 4.97.
For `P2N`, “normalised enrichment score” read 6.96.
`P13V`: “normalised enrichment score” 7.2.
`P13S`: “normalised enrichment score” 7.2.
`S12L`: “normalised enrichment score” 6.61.
Under “normalised enrichment score”, `R4K` is recorded as 6.23.
For `H3Q`, “normalised enrichment score” read 8.56.
Under “normalised enrichment score”, `H3S` is recorded as 9.81.
`L8I` — result for “normalised enrichment score”: 8.87.
`S12G` — result for “normalised enrichment score”: 7.84.
`P1F` — result for “normalised enrichment score”: 7.31.

Study 2 — technique: RNA Bind-n-Seq; molecule type: RNA; sample: in vitro; concentration: 365 nM; relative to: no-protein control; reading: higher = stronger binding
Target: RNA binding protein fox-1 homolog 2, RRM domain, GST-SBP tag (RBFOX2, Homo sapiens, UniProt O43251-10, residues 100-194)
Setting: natural RNA segment, single round, ends assumed
Target sequence (chain): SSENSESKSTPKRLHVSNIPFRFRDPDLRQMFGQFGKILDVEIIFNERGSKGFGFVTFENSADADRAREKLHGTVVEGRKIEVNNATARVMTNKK
Under “RBNS enrichment (R)”, `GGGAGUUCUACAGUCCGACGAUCAUUUCAGCCUCGUGGCUUCUCUUAUUCAGGUCCAAGGCCCCUUAAAAACAAAACAUAUUAUCGCAAGGGCUUUCAUUUCAGUAUUGGCUGUGUCACUGGCAGGAUGCAUCUGGAAUUCUCGGGUGCCAA` is recorded as 0.894.
Under “RBNS enrichment (R)”, `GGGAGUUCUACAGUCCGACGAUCGUUAGAGAGAAAUUGUAGCACAUUUAAAUUAUUACUCUAAUACUCUUAGACGAUAGAUACCCAUAUUUCUCCACAAAGUCAAUGCUAUCUUUUUAACAGCACUGUAGCAUUGGAAUUCUCGGGUGCCAA` is recorded as 1.08.
`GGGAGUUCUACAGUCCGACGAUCGUGUACCGUGUAAAGUGGGGAUGGGGUAAAAGUGGUUAACGUACUGUUGGAUCAACAAAUAAAGGUUACAGUUUUGUAAGAGAAGUGAUUUGAAUACAUUUUUCUGGAACUGGAAUUCUCGGGUGCCAA`: “RBNS enrichment (R)” 1.48.
`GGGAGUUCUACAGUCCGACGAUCCCUAGGUCAGCGUGCAGAGCAGUGAUGCUGGAGGACACACCAUGGGGUGAAGCCAUCCCAAGGCUGACAGCUCAGUCUUCACCUUGCCUCUGGCCUUGUAUUUCACACCCUGGAAUUCUCGGGUGCCAA`: “RBNS enrichment (R)” 0.22.
`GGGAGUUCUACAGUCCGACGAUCUGGGCCUCUCGGAUGAAGGUGGACCCAAGUCAGAAGGAGCGCCAAAGGCCAAAUCAAAACCCCGGAAGCGGUUAGAAGAAAGCCAAGGAGGCCCCAAGCCAGGGGCAGUGUGGAAUUCUCGGGUGCCAA` — result for “RBNS enrichment (R)”: 0.235.
`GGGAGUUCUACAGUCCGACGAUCUGAUUCUGGUUUUGAGUUACUCUUUGUUCAGUAAUGCACUUUAUUUUAUUGUCCAAAGAGAGUCAGAGCUAAGCAUACAGGCUUGGGGGUGAGCCCUGCUGUGAGAGUUCUGGAAUUCUCGGGUGCCAA`: “RBNS enrichment (R)” 1.21.
For `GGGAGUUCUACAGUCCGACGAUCUUUUGGGUCAGGGUUUCACUGUGUUGCCCAGGCUAGAGUGCAGUGGUGCCACAGCUCACUGUGACCUUGACCUUCUGGACUCAAGUGAUCCUCCUGCCUCAGCUUCCCAAUGGAAUUCUCGGGUGCCAA`, “RBNS enrichment (R)” read 0.385.
For `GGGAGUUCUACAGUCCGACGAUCAAUUGGUUUAAAAUACUAUUUGCAGUGAGACCAUCUUUAGACUUGGAUAUUCUUGAUUCUUAGUUCAAAAAAGUUAUUUUGUCAAUAAAACAUGCUUAAAGGAGUAACUAUGGAAUUCUCGGGUGCCAA`, “RBNS enrichment (R)” read 0.39.
`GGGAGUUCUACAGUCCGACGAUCAAUGGAAGUUAGGUGAGGAGUUGAAGGUUGGUUUCUUGCGCUGUGCUUCCUUGGCUUGGGGGAGGGGGCAUCCGUCCCCCUCUGUGUGAACACAGCUCACCGCGUCACCUUGGAAUUCUCGGGUGCCAA` — result for “RBNS enrichment (R)”: 0.57.
For `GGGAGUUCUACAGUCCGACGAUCCACAAGAGCACCAGACUUGGGGGUGUAAUCUCCGGCAACUUGCAUGCCCUCUGAAAGAAGGGUUUUCUGUGCUGUGAAAUGCAUAGAACUAUACUUUGCCAUGCACGACUUGGAAUUCUCGGGUGCCAA`, “RBNS enrichment (R)” read 7.34.
For `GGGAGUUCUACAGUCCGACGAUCCCAACAAGAGAUCUCGAACCCUGUCUAGAAGGAAUGUAUUUGUUGCUAAAUUUCGUAGCACUGUUUACAGUUUUCCUCCAUGUUAUUUAUGAAUUUUAUAUUCCGUGAAUUGGAAUUCUCGGGUGCCAA`, “RBNS enrichment (R)” read 0.43.
For `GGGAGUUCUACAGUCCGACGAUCAGGGCUGGCCCUUAUUUGCUCUCCCUCCUUCGACUUGCAGAAAUUAAUUUAAUUAAUUAAUUUACUAUAUUAAAGCCCUUGGUCACCCAAGGGCUCAGAAAACAAGCUGUUGGAAUUCUCGGGUGCCAA`, “RBNS enrichment (R)” read 0.507.

Study 3 — technique: EMSA with sequencing; molecule type: double-stranded DNA, one strand shown; sample: in vitro; concentration: 10 and 20 nM; relative to: negative control set to 0; reading: higher = stronger binding
Target: Hepatocyte nuclear factor 3-alpha (Foxa1, Mus musculus, UniProt P35582, residues 1-468, full length assumed)
Setting: whole designed probe, mean of two concentrations, ends assumed
Residues (chain): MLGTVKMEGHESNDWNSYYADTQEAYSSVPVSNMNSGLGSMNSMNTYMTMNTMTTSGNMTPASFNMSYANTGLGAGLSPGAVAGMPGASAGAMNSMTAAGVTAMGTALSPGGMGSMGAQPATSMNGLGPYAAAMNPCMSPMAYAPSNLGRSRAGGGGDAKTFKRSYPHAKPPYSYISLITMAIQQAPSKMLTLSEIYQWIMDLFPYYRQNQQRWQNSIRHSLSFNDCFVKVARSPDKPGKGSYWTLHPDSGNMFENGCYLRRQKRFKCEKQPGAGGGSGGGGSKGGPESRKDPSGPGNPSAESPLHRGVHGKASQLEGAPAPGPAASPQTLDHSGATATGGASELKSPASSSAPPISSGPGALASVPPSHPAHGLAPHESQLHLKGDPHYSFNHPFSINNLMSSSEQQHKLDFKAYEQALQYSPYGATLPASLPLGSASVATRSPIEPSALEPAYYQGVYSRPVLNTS
`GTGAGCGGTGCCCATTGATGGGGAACTTATTTTGATAACATCTCCTTTTCATTAGAACCTTCCTCTCTAGTCCCTCTATTTCAATCTTTAATGTTGTTCTTTGTGCTGTTTCATGCCTTTGTTTACATTCTTACACACACACACCCCATTCCTGGAATTTCCCTCCTAGTCGTCTCTGCCTGAAAAAAAACCCTACTAACCCTTTGAGGCCAGCTCAGATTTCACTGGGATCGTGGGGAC`: “normalised bound fraction” 0.435 ratio.
For `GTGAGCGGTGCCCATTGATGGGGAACATAAGGCAGGGCACGGCTCTTCTTCAGAAAATGCCTCTGGGCCCTGCTCATCTGGAACTTGTTTTGGTAACTTTAAGCTTAGTAGCTTTTTTTGTTTACTTAGTAATACATTTTCTTTAGAGAGAACACACACACTGGGTTTTCTTTAGAGAGGAACACACTCGCACTGGGGCTGGACATGAGTCACTACAGTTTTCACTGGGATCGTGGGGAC`, “normalised bound fraction” read 0.557 ratio.
`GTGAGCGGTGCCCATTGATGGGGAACAAATGGAAATCATAATGCAGATACAGAATTTTAAAGTTGGTTATCTCCTGCTACCTCAAGTATTATTTTAGGATTAGTAAGGGAAATTACCTAAGTAAACATAGATGAATTATTCACATATAAATCTGAGATTCACTCATATATAATAATCTAATTTTTTACTAGACTTGGTGATCATAAGAAATATTATAAGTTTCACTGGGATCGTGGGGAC` — result for “normalised bound fraction”: 0.458 ratio.
`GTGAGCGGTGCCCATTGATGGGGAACACTCAAATTCACTTGGGACTGATGGTTTCATTTCTCTTCTCCCACACTAGGTGGCCAGACCAGCAAGACTTAAGCTTTGTTTAACTTGTCAAAGATTACAGAAGTGCAGGTTGCCAAAATTCTCTCTGCACCCTGACTCCCACTCCCTTTTTTAATTTTTTATTTTATTTTTTGAAATGGAGTCTTGCTCTGTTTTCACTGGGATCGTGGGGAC`: “normalised bound fraction” 0.13 ratio.
Under “normalised bound fraction”, `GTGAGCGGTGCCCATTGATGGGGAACAGCAAGGCTTTAAAAGTGAGGTCTTTCAGTTTAGATGCAAAAAGGGTGGTTCTGTTGAGGTTTCGTAATTCAACCCAGCTATTTCACTACATAGTAAACACCTAGAATGAGGTAGCTGGAGTGCAAATCTAAATGGCTTGTGACAGTTAAGGAAGTACATAGGCAACAGTTACTGGTTTTCTTGATGCAGCTGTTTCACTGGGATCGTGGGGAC` is recorded as -0.00376 ratio.
`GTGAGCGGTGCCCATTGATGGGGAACATACACATAAACCAAGAGAAACAAAATACAATATTTATGTGTATATCTTTCTCATTGAACTTCACATTGCTAGAAGTATTTTTCTAAAGACAATGTAATCTTGTCATTTCACTACTAAAAATTTTTTAGTAGATAATATCAATTGCTTTAAGAATAAAACAATTTTTAAAATAATTATATGAAAAAAGTTCTCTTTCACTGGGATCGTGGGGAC` — result for “normalised bound fraction”: 0.0652 ratio.
Under “normalised bound fraction”, `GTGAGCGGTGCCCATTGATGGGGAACTTAAGTTGGCAAAATTTAGGAAGCCAGATGATGCCAGATTTTGGCAGGACTTTGAGGATATTGGAACCATTACAGGTTCCTATGACTCAGCAATGTTTGCATAGGTTATGAGAGAACATGTAAGGAATTGTTTATTAAGGCATTATTTGAAGTGGCAATGAGTTGGAGGACATTCGCAAATCCATCACTGAGATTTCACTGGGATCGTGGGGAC` is recorded as 0.446 ratio.
`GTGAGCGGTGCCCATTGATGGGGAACTTTTTTAATAAGAGGGACACTCAGTGAAATTTTTGCGTGAAAATAAGATAAAGTTCTATTGTTCAGCTTTTAATGATAGCATGGAATTCTAAGTAAACATGGATGAAATACAACTTGTCAGCACAAAAATACTGCCTGTCATAGTCATTTGTGTATAAAATATGACCCGCAGGTTTGAACCATATGGTTACATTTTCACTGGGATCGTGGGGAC` — result for “normalised bound fraction”: 0.24 ratio.

Study 4 — technique: DHFR PCA, deep sequencing; sample: yeast; together with: (+)-ABA 0.0091 µM; relative to: wild-type fitted maximum; reading: higher = stronger binding
Target: ABI1, truncated, D143A, DHFR fusion (Arabidopsis thaliana)
Setting: methotrexate growth selection, single substitutions
Starting sequence: PYL1, truncated, DHFR fusion (Arabidopsis thaliana); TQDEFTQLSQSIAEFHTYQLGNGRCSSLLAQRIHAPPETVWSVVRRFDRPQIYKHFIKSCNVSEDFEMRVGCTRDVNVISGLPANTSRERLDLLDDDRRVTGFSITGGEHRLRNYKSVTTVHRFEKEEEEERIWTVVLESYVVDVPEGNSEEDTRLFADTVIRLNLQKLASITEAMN
`L156G`: “relative binding score” 0.985%.
Under “relative binding score”, `G21S` is recorded as 31.8%.
`V40Q`: “relative binding score” -0.51%.
`R74A`: “relative binding score” -2.27%.
`G71Y`: “relative binding score” -3.41%.
Under “relative binding score”, `E131I` is recorded as 24.3%.
Under “relative binding score”, `L28N` is recorded as -2.48%.
For `I105W`, “relative binding score” read -1.04%.
Under “relative binding score”, `I33E` is recorded as -2.33%.
`E127Y` — result for “relative binding score”: 19.6%.
For `T160K`, “relative binding score” read 3.18%.
`E147W`: “relative binding score” -0.316%.
Under “relative binding score”, `I162Q` is recorded as 0.697%.
`Y53V` — result for “relative binding score”: -3.15%.
`G71D` — result for “relative binding score”: -4.55%.
`S150M` — result for “relative binding score”: 8.03%.
Under “relative binding score”, `S150W` is recorded as 0.178%.
`D75L` — result for “relative binding score”: 33.1%.
